Measured values of several laboratories.
Parts stem from different laboratories: compare values within a part only. Values joined by “and” are separate records of one study, mostly repeats; a detail may differ. ± gives the spread as reported.
Sequence of UniProt O43353 (whole entry, looked up): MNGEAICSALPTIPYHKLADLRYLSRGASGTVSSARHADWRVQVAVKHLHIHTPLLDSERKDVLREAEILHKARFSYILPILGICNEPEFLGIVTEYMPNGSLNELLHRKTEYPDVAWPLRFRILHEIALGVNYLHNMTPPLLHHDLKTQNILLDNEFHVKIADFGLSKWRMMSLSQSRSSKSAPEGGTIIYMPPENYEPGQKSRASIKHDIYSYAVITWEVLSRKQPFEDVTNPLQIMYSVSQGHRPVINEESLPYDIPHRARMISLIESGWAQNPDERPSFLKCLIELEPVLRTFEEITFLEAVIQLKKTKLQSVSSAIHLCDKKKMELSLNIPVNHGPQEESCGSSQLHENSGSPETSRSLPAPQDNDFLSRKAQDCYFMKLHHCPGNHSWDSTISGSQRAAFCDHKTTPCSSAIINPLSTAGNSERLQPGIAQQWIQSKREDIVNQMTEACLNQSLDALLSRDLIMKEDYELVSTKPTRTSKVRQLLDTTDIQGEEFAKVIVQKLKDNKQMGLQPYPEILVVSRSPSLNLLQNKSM
Sequence of UniProt P00519 (whole entry, unmodified, looked up): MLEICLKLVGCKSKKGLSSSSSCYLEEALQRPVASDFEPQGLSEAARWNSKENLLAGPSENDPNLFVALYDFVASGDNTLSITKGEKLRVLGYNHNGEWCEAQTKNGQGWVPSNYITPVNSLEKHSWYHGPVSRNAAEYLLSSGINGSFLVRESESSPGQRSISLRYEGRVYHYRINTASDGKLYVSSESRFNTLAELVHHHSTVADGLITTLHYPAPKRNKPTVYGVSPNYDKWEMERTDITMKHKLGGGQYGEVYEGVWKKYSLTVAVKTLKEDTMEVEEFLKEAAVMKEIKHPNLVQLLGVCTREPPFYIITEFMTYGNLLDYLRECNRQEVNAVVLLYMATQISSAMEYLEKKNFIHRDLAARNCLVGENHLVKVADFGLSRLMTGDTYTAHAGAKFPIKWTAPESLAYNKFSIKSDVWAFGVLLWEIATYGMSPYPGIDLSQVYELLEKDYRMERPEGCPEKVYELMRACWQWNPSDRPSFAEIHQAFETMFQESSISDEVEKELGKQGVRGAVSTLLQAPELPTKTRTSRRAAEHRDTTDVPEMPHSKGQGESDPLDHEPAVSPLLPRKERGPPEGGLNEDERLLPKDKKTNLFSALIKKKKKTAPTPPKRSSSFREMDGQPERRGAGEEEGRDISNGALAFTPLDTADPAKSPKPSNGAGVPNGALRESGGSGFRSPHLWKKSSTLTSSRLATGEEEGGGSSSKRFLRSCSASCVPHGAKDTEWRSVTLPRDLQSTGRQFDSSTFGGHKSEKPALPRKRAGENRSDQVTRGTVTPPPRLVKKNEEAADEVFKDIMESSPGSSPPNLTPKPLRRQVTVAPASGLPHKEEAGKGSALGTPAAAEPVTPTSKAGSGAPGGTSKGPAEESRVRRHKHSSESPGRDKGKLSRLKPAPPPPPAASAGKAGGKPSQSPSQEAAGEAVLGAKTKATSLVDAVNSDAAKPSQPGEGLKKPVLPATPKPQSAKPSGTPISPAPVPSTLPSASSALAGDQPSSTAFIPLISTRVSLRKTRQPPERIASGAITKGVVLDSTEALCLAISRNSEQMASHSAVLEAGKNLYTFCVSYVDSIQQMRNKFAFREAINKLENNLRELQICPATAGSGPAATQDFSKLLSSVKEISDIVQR
Sequence of UniProt P15735 (whole entry, looked up): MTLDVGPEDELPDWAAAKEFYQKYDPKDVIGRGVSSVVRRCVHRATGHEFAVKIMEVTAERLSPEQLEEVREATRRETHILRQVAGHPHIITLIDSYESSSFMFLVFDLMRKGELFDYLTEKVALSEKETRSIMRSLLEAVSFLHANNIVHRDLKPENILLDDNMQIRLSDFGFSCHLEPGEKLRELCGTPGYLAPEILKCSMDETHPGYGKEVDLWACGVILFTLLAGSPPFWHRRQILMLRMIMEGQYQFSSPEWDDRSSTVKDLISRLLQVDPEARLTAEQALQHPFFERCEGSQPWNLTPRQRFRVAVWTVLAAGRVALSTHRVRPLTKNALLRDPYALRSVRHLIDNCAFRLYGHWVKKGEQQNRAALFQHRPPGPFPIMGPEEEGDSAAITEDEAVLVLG
Sequence of UniProt Q8IVH8 (whole entry, looked up): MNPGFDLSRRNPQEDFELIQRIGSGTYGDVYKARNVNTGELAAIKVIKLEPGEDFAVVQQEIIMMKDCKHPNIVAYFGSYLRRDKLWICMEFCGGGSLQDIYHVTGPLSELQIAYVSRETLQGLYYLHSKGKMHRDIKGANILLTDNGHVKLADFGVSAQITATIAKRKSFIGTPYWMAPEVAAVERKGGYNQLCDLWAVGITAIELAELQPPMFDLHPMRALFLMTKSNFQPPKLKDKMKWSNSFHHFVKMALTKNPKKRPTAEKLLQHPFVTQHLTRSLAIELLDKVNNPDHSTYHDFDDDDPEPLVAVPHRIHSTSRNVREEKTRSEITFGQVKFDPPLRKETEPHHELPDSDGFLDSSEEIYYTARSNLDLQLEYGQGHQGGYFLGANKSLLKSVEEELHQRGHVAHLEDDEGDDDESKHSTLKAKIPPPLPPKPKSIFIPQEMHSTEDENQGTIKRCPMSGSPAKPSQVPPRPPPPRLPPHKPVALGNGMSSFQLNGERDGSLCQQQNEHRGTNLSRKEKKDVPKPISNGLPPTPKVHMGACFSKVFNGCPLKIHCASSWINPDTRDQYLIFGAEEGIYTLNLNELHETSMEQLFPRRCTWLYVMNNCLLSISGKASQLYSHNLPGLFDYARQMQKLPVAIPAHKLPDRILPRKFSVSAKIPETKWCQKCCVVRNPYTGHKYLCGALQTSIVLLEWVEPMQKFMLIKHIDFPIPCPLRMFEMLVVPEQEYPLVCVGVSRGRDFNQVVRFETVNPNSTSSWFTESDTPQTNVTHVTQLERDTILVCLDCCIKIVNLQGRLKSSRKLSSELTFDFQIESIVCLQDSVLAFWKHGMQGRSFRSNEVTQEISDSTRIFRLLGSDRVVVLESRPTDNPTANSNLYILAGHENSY
Sequence of UniProt P53355 (whole entry, looked up): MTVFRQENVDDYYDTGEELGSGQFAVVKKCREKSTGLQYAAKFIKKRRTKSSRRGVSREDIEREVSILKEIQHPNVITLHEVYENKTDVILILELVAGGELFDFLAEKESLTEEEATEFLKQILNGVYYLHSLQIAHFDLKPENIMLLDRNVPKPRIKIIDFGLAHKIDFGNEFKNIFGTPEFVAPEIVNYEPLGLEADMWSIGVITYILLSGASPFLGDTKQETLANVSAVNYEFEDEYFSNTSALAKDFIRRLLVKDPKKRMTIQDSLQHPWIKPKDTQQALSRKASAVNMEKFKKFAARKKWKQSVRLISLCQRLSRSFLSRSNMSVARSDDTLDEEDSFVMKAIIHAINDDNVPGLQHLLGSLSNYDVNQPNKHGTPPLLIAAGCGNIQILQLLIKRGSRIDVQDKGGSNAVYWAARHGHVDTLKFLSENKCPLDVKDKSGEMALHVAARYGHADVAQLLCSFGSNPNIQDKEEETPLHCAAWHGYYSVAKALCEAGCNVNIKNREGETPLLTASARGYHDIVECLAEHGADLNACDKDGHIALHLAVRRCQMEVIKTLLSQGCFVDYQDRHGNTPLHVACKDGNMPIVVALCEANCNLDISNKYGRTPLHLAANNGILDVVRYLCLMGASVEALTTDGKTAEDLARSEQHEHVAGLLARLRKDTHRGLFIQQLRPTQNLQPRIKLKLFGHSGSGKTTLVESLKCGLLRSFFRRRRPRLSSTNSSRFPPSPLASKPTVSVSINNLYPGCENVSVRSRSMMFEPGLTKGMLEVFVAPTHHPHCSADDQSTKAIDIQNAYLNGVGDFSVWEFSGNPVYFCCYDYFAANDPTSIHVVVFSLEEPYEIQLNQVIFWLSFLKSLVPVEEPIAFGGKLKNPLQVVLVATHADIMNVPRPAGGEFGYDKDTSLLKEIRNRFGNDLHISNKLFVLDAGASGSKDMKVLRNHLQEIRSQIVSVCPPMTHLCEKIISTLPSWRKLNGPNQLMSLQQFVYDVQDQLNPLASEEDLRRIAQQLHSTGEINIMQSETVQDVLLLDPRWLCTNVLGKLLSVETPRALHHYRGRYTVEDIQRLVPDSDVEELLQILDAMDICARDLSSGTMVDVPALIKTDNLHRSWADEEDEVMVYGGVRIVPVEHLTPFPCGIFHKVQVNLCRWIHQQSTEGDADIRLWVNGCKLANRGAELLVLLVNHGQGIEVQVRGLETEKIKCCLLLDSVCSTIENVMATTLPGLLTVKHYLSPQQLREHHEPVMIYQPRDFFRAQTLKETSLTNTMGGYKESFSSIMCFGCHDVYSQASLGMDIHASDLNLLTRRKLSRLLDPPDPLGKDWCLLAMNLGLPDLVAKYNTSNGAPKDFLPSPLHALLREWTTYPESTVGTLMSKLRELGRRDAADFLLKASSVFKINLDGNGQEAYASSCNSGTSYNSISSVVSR

Set 1 — read-out: enzyme activity; mode: inhibitor; tested at: 0.5 µM; reference: control
SMILES: CN(C)S(=O)(=O)c1ccc2c(c1)/C(=C/c1cc3c([nH]1)CCCC3)C(=O)N2
target | remaining activity [%]
ULK1 (Homo sapiens, UniProt O75385) | 6.13
PDGFRB (Homo sapiens, UniProt P09619) | 96.5
FGFR2 (Homo sapiens, UniProt P21802) | 49.3
PRKD3 (Homo sapiens, UniProt O94806) | 90.4
SGK3 (Homo sapiens, UniProt Q96BR1) | 98.1
TAOK1 (Homo sapiens, UniProt Q7L7X3) | 85.8
RAF1 (Homo sapiens, UniProt P04049) | 97.7
RIPK2 (Homo sapiens, UniProt O43353) | 88.9
PHKG2 (Homo sapiens, UniProt P15735) | 78.8
MAP4K5 (Homo sapiens, UniProt Q9Y4K4) | 3.08
ACVR1 (Homo sapiens, UniProt Q04771) | 98.6
PLK1 (Homo sapiens, UniProt P53350) | 101
DYRK2 (Homo sapiens, UniProt Q92630) | 103
VRK1 (Homo sapiens, UniProt Q99986) | 104
NTRK2 (Homo sapiens, UniProt Q16620) | 15.6
INSRR (Homo sapiens, UniProt P14616) | 93.3
TNK2 (Homo sapiens, UniProt Q07912) | 12.6
HCK (Homo sapiens, UniProt P08631) | 31.6
MAP3K9 (Homo sapiens, UniProt P80192) | 74.6

Set 2 — mode: antagonist
Target: Beta-1 adrenergic receptor (ADRB1, Homo sapiens, UniProt P08588)
Sequence of UniProt P08588 (whole entry, looked up): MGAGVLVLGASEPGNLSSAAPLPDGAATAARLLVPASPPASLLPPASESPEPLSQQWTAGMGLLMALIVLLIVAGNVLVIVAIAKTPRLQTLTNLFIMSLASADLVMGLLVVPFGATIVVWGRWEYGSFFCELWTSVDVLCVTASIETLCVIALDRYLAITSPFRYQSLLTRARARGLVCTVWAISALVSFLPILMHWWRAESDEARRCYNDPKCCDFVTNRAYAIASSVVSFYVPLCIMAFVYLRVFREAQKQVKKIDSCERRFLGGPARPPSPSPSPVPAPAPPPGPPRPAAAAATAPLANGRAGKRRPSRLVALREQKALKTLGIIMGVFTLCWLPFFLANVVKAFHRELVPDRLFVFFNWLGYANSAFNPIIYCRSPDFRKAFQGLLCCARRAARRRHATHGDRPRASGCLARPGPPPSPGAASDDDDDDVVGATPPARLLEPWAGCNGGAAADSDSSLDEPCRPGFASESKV
SMILES | IC50
COc1ccccc1N1CCN(c2ncnc3c2CN(C)CC3)CC1 | ≥ 100 µM
COCCN1CCOc2nc(-c3cccc(N(C)C)c3)ncc2C1=O | ≥ 100 µM
Oc1ccc(CCNCCCCCCNCCc2ccccc2)cc1O | ≥ 100 µM
c1ccc(-c2nc3c(c(N4CCNCC4)n2)CCC3)cc1 | ≥ 100 µM
OC(COc1ccc(CN2CC(Oc3ccccc3)C2)cc1)CN1CCCCC1 (stereo not drawn) | ≥ 100 µM
c1cc(-c2cc3c(ccn3Cc3ccncc3)c(N3CCOCC3)n2)c2cn[nH]c2c1 | ≥ 100 µM
COC(=O)c1c(OC)cc2c(c1C)Oc1c(Cl)c(O)c(Cl)c(C)c1C(=O)O2 | ≥ 100 µM
Cc1cc(-c2cc3ccccc3o2)nc2ccccc12 | 35.5 µM
Cc1noc2c(-c3ccsc3)cc(-c3cccnc3)nc12 | ≥ 100 µM
CC1CCN(Cc2ccccc2OCC(O)CN2CCSCC2)CC1 (stereo not drawn) | ≥ 100 µM
CN(C)c1cccc(-c2ncc3c(n2)OCCN(Cc2ccc(F)cc2F)C3=O)c1 | ≥ 100 µM
CNc1nc(-c2ccccc2)c(-c2ccccc2)s1 | ≥ 100 µM
COc1ccc2[nH]cc(C3=CCN(c4ncnc5ccccc45)CC3)c2c1 | ≥ 100 µM
Cc1oc(C(O)c2ccccc2)nc1C(=O)NCCc1c[nH]cn1 (stereo not drawn) | ≥ 100 µM
CC(CNCCc1ccc(O)c(O)c1)Cc1cccc(O)c1 (stereo not drawn) | ≥ 100 µM
OC(CNc1ncnc2c1cnn2-c1ccccc1)C1CC1 (stereo not drawn) | ≥ 100 µM
CCCC(NCC(O)COc1ccc(-c2ccccc2)cc1)c1ccccc1 (stereo not drawn) | ≥ 100 µM

Set 3 — organism: Sarcocystis neurona; read-out: parasite growth; tested at: 10 µM; time: 96 h
Compound | inhibition [%]
Cc1cc2c(s1)Nc1ccccc1N=C2N1CCN(C)CC1 | -7.2
NC(=O)c1cccnc1 | -0.753
CCN1CCCC1CNC(=O)c1cc(S(=O)(=O)CC)c(N)cc1OC (stereo not drawn) | -4.1
Nc1nc2c(ncn2COCCO)c(=O)[nH]1 | -8.8
CC[N+](C)(C)c1cccc(O)c1 | -17.5
O=C(O)CCNC(=O)c1ccc(/N=N/c2ccc(O)c(C(=O)O)c2)cc1 | -15.4
CN(C)CCCN1c2ccccc2CCc2ccccc21 | -12.4
Cc1ccc(NC(=O)c2ccc(CN3CCN(C)CC3)cc2)cc1Nc1nccc(-c2cccnc2)n1 | -16.6
CO[C@@]1(NC(=O)Cc2cccs2)C(=O)N2C(C(=O)O)=C(COC(N)=O)CS[C@@H]21 | -16.7
CC(=O)OCC(=O)[C@@]12OC3(CCCC3)O[C@@H]1C[C@H]1[C@@H]3CCC4=CC(=O)C=C[C@]4(C)[C@@]3(F)[C@@H](O)C[C@@]12C | -1.7
CC(=O)OCC(=O)[C@@]1(O)CC[C@H]2[C@@H]3CCC4=CC(=O)C=C[C@]4(C)[C@H]3[C@@H](O)C[C@@]21C | -5.5
CN(C)CCC(c1ccc(Cl)cc1)c1ccccn1 (stereo not drawn) | -9.5
CC(C(O)c1ccc(O)cc1)N1CCC(Cc2ccccc2)CC1 (stereo not drawn) | -5.8
CC/C(=C(\c1ccccc1)c1ccc(OCCN(C)C)cc1)c1ccccc1 | -3.3

Set 4 — read-out: acetyl-histone H4 peptide binding; method: AlphaScreen displacement; tested at: 50 µM
Target: Bromodomain-containing protein 4, BD1 (BRD4, Homo sapiens, UniProt O60885)
SMILES | inhibition
Nc1ncnc2c1c(I)cn2[C@@H]1O[C@H](CO)[C@@H](O)[C@H]1O | 14.7%
Cn1c(=O)c(C(=O)NNS(=O)(=O)c2ccc(Br)cc2)c(O)c2ccccc21 | 0.85%
O=C(NCc1ccccn1)c1n[nH]c2ccccc12 | 7%
Cc1ccc(Nc2ncc(-c3ccncc3)n3ccnc23)cc1 | 5.35%
O=c1[nH]cnc2ccc(NC(=S)Nc3cccc4ccccc34)cc12 | 29.1%
CC(C)c1nn(-c2c(Cl)cccc2Cl)c2nc(Cc3ccc(OCCO)cc3)[nH]c(=O)c12 | 9.35%

Set 5 — tested at: 1 µM
Compound: CCOCCn1cc(C(=O)Nc2ccc(-n3nc(-c4cccnc4)cc3C(F)(F)F)cn2)ccc1=O
target | read-out | method | remaining binding [%]
Tyrosine-protein kinase ABL1, phosphorylated (ABL1, Homo sapiens, UniProt P00519, F317I) | binding | – | 91
GRK2 (Homo sapiens, UniProt P25098) | cell-free assay | competition with immobilised ligand | 75
SYK (Homo sapiens, UniProt P43405) | cell-free assay | competition with immobilised ligand | 100
TYRO3 (Homo sapiens, UniProt Q06418) | cell-free assay | competition with immobilised ligand | 0
MAP3K7 (Homo sapiens, UniProt O43318) | cell-free assay | competition with immobilised ligand | 90
MAP4K3 (Homo sapiens, UniProt Q8IVH8) | cell-free assay | competition with immobilised ligand | 85
FLT4 (Homo sapiens, UniProt P35916) | cell-free assay | competition with immobilised ligand | 92
PTK2B (Homo sapiens, UniProt Q14289) | cell-free assay | competition with immobilised ligand | 100
CDK7 (Homo sapiens, UniProt P50613) | cell-free assay | competition with immobilised ligand | 88
PNCK (Homo sapiens, UniProt Q6P2M8) | cell-free assay | competition with immobilised ligand | 79
DAPK1 (Homo sapiens, UniProt P53355) | cell-free assay | competition with immobilised ligand | 100
FES (Homo sapiens, UniProt P07332) | cell-free assay | competition with immobilised ligand | 82
EPHB3 (Homo sapiens, UniProt P54753) | cell-free assay | competition with immobilised ligand | 89
ALK (Homo sapiens, UniProt Q9UM73) | cell-free assay | competition with immobilised ligand | 79
RIPK2 (Homo sapiens, UniProt O43353) | cell-free assay | competition with immobilised ligand | 71

Set 6 — read-out: kinase activity
SMILES: COc1cc(C(=O)N2CCC(N3CCN(C)CC3)CC2)ccc1Nc1ncc2c(n1)N(C)c1ccccc1C(=O)N2C
target | tested at | remaining activity [%]
ERK1 | 1 µM | 105
TRKA | 1 µM | 79 ± 8
EPH-A2 | 1 µM | 98 ± 5
MAPKAP-K2 | 1 µM | 86 ± 1
DYRK2 | 1 µM | 90 ± 5
BTK | 1 µM | 95 ± 21
Aurora B | 10 µM | 28 ± 1
IKKb | 1 µM | 103 ± 5
GCK | 1 µM | 93 ± 5
IR | 1 µM | 104 ± 8

Set 7 — cell line: mouse MPNST tumor cells; method: high-content immunofluorescence imaging; measured: nuclear SOX9; tested at: 10 µM; time: 12 h; setting: mean of 2 replicates; reference: DMSO control; direction: higher = more nuclear SOX9
SMILES | nuclear SOX9 intensity
Cc1cc(N)c2ccccc2[n+]1CCCCCCCCCC[n+]1c(C)cc(N)c2ccccc21 | 70.6 % of DMSO
COc1c2occc2c(OC)c2c(=O)cc(C)oc12 | 129 % of DMSO
CC(C)(CN)c1nc(-c2ccc(Cl)c(O)c2)c(-c2ccncc2)[nH]1 | 105 % of DMSO
Cc1cc(=O)n(-c2ccccc2)n1C | 92.5 % of DMSO
NC(N)=NCCC[C@H](NC(=O)c1sccc1NS(=O)(=O)c1cccc2nsnc12)C(=O)O | 85.9 % of DMSO
CCCCOc1ccc(CC(=O)NO)cc1 | 106 % of DMSO
COc1ccc(C(=O)Nc2sc3c(c2C(N)=O)CCCC3)cc1OC | 101 % of DMSO
N[C@@H](Cc1ccc(O)c(O)c1)C(=O)O | 96.7 % of DMSO
CCN(CC)CCN[C@@H](C(=O)OCCC(C)C)c1ccccc1 | 110 % of DMSO
COc1cc(OC)cc(C(=O)NNC(=O)Nc2cccc3ccccc23)c1 | 94.4 % of DMSO
NC(=O)c1ncn([C@@H]2O[C@H](CO)[C@@H](O)[C@H]2O)n1 | 103 % of DMSO and 84.7 % of DMSO and 95.1 % of DMSO
Cc1cc(-n2c(=O)[nH]c(=O)n(C)c2=O)ccc1Oc1ccc(SC(F)(F)F)cc1 | 97.9 % of DMSO
OC(CNCC(O)C1CCc2cc(F)ccc2O1)C1CCc2cc(F)ccc2O1 (stereo not drawn) | 275 % of DMSO
CO/N=C(\C(=O)N[C@@H]1C(=O)N2C(C(=O)OC(C)OC(C)=O)=C(COC(N)=O)CS[C@H]12)c1ccco1 (stereo partly drawn) | 100 % of DMSO
CNC(=O)c1cc2c(cn1)[nH]c1ccccc12 | 103 % of DMSO
COc1cc(C#N)ccc1S(=O)(=O)Nc1ccc2c(c1)cc(C)c(=O)n2C | 107 % of DMSO and 102 % of DMSO
CCCN1CCCC[C@H]1C(=O)Nc1c(C)cccc1C | 98 % of DMSO
Nc1nc(CC(=O)Nc2ccc(CCNC[C@H](O)c3ccccc3)cc2)cs1 | 102 % of DMSO
Cc1cccc(-c2[nH]c(C34CCC(C(N)=O)(CC3)CC4)nc2-c2ccc3c(c2)OCO3)n1 | 107 % of DMSO
CCN(CC)CCOC(=O)C1(c2ccc([N+](=O)[O-])cc2)CCCC1 | 117 % of DMSO

Mixed results
Structure (SMILES) | target | read-out | mode | cell line | endpoint | value
CCC1(O)CC2c3cc(OC)c(OC)cc3CCN2CC1CC(C)C (stereo not drawn) | Synaptic vesicular amine transporter (SLC18A2, Homo sapiens, UniProt Q05940) | [3H]dopamine uptake | inhibitor | HEK293 hVMAT2 membranes | Ki | 0.0195 ± 0.001 µM

Some of these lines once more (set 7):
SMILES | nuclear SOX9 intensity
CCCCOc1ccc(CC(=O)NO)cc1 | 106 % of DMSO
COc1ccc(C(=O)Nc2sc3c(c2C(N)=O)CCCC3)cc1OC | 101 % of DMSO
N[C@@H](Cc1ccc(O)c(O)c1)C(=O)O | 96.7 % of DMSO
CCN(CC)CCN[C@@H](C(=O)OCCC(C)C)c1ccccc1 | 110 % of DMSO
COc1cc(OC)cc(C(=O)NNC(=O)Nc2cccc3ccccc23)c1 | 94.4 % of DMSO
NC(=O)c1ncn([C@@H]2O[C@H](CO)[C@@H](O)[C@H]2O)n1 | 103 % of DMSO and 84.7 % of DMSO and 95.1 % of DMSO
Cc1cc(-n2c(=O)[nH]c(=O)n(C)c2=O)ccc1Oc1ccc(SC(F)(F)F)cc1 | 97.9 % of DMSO
OC(CNCC(O)C1CCc2cc(F)ccc2O1)C1CCc2cc(F)ccc2O1 (stereo not drawn) | 275 % of DMSO
CO/N=C(\C(=O)N[C@@H]1C(=O)N2C(C(=O)OC(C)OC(C)=O)=C(COC(N)=O)CS[C@H]12)c1ccco1 (stereo partly drawn) | 100 % of DMSO
CNC(=O)c1cc2c(cn1)[nH]c1ccccc12 | 103 % of DMSO
COc1cc(C#N)ccc1S(=O)(=O)Nc1ccc2c(c1)cc(C)c(=O)n2C | 107 % of DMSO and 102 % of DMSO
CCCN1CCCC[C@H]1C(=O)Nc1c(C)cccc1C | 98 % of DMSO
Nc1nc(CC(=O)Nc2ccc(CCNC[C@H](O)c3ccccc3)cc2)cs1 | 102 % of DMSO
Cc1cccc(-c2[nH]c(C34CCC(C(N)=O)(CC3)CC4)nc2-c2ccc3c(c2)OCO3)n1 | 107 % of DMSO
CCN(CC)CCOC(=O)C1(c2ccc([N+](=O)[O-])cc2)CCCC1 | 117 % of DMSO
